# Measured values gathered from unrelated publications.
# Compare with care: the assays were run in different laboratories.
# Nuclear receptor subfamily 2 group C member 2 ligand-binding domain: Nuclear receptor subfamily 2 group C member 2, ligand-binding domain (Homo sapiens, UniProt P49116)
# UniProt P49116, sequence (whole entry, looked up): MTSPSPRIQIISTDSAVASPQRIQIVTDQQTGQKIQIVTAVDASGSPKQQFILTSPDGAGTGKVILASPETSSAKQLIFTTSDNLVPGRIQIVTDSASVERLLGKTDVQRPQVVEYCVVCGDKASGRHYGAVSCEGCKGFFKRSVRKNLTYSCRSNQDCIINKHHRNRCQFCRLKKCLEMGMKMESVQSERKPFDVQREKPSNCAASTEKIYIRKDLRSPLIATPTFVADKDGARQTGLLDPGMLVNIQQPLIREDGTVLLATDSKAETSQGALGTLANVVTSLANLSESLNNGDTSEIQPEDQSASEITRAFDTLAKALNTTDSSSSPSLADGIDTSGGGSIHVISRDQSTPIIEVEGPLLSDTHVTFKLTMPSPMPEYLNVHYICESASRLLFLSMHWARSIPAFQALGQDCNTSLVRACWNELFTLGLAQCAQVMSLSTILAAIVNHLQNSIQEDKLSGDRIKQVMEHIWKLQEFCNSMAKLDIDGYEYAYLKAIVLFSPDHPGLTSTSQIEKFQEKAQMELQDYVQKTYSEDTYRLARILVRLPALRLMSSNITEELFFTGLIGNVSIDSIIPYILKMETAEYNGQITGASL
Structure (SMILES),tested on,assay,system,setting,quantity,result
CCc1nc(C(N)=O)c(Nc2ccc(N3CCC(N4CCN(C)CC4)CC3)c(OC)c2)nc1NC1CCOCC1,,,"Japanese patients, plasma","oral, 80 mg, cycle 1 day 28, multiple doses, median",AUCtau,4510 ng·h/mL
O=C(O)c1ccc(O)c2ncccc12,OCI-Ly1,,,"1 µM, 120 h",viability,164%
Cc1cc(-c2nccc3c2ccn3CC(=O)Nc2ccc(-c3cnccn3)cn2)ccn1,,,"human, plasma","oral, 5 mg once daily, day 1, geometric mean",AUCtau,0.333 µM·h
Cc1noc(C)c1-c1cc(C(O)(c2ccccn2)c2ccccn2)c2nc(C3CC3)[nH]c2c1,,,"human male, fasted, plasma","oral, 4 mg once daily, cycle 1 day 8",AUCtau,4660 ng·h/mL
O=C(c1ccc(OCCN2CCCCC2)cc1)c1c(-c2ccc(O)cc2)sc2cc(O)ccc12,Nuclear receptor subfamily 2 group C member 2 ligand-binding domain,SPR imaging,,,Kd,1.33 nM
C=CC(=O)Nc1cc(Nc2nccc(Nc3cc(Cl)c(F)cc3C(C)(C)O)n2)c(OC)cc1N1CC[C@@H](N(C)C)C1,,,"human patients, plasma","oral, 200 mg daily, cycle 2 day 1, geometric mean",AUCtau,6820 ng·h/mL
Fc1ccc([C@@H]2CCNC[C@H]2COc2ccc3c(c2)OCO3)cc1,,,"human, CYP2D6 normal metabolizers","oral, 20 mg, steady state, dosing interval 24 h, geometric mean",AUCtau,361 ng·h/mL
C[C@@H](Oc1cc(-c2cnn(C3CCNCC3)c2)cnc1N)c1c(Cl)ccc(F)c1Cl,,,"human patients, plasma","oral, dose not given, cycle 2 day 1, mean, with: avelumab",AUCtau,3300 ng·h/mL
O=C(c1cccnc1-c1ccncc1)N1CCC(O)(Cc2ccccc2)CC1,,,"healthy Japanese adults, plasma","oral, 100 mg twice daily, day 1",AUCtau,232 ng·h/mL
CCCNCC(O)COc1ccccc1C(=O)CCc1ccccc1 (stereo not drawn),Nuclear receptor subfamily 2 group C member 2 ligand-binding domain,SPR imaging,,,Kd,0.0489 nM
CC1=CC(=O)CC(C)(C)[C@@]1(O)/C=C/C(C)=C\C(=O)O,OCI-Ly1,,,"1 µM, 120 h",viability,3.73%
Cc1nn(C)cc1S(=O)(=O)NC(=O)c1ccc(-n2ccc(OCC(C)(C)C(F)(F)F)n2)nc1N1C[C@@H](C)CC1(C)C,,,"human, plasma",standard ETI dose,AUCtau,61200 ng·h/mL

# Some of these lines once more:
Structure (SMILES),tested on,assay,system,setting,quantity,result
C[C@@H](Oc1cc(-c2cnn(C3CCNCC3)c2)cnc1N)c1c(Cl)ccc(F)c1Cl,,,"human patients, plasma","oral, dose not given, cycle 2 day 1, mean, with: avelumab",AUCtau,3300 ng·h/mL
O=C(c1cccnc1-c1ccncc1)N1CCC(O)(Cc2ccccc2)CC1,,,"healthy Japanese adults, plasma","oral, 100 mg twice daily, day 1",AUCtau,232 ng·h/mL
